Experimental data of several laboratories.
Protocols differ between the studies behind these lines. Numbers after ± are the reported error. In brackets after ≈: the same amount, converted by molar mass.

Structure (SMILES) | test | test system | conditions | how to read | endpoint | result
CN1CCC[C@]1(C)/C=C/S(=O)(=O)NC(=O)Nc1c2c(cc3c1CCC3)CCC2 |  | human, plasma | oral, 100 mg twice daily, day 14, multiple ascending dose |  | AUC(0-24) | 182 µg·h/mL
COCCOCCOCCOCCC(=O)NCc1cc(CNC(=O)CCOCCOCCOCCOC)cc(-c2cc3cc4nc(c(-c5ccc(CCC(=O)O)cc5)c5[nH]c(cc6nc(c(OC)c2[nH]3)CC6(C)C)cc5-c2cc(CNC(=O)CCOCCOCCOCCOC)cc(CNC(=O)CCOCCOCCOCCOC)c2)CC4(C)C)c1 |  | water with 5% DMF | room temperature |  | intersystem crossing yield | 0.35
O=C(CCCCC[N+]#[C][99Tc-5]([C]#[N+]CCCCCC(=O)N[C@H]1C(O)O[C@H](CO)[C@@H](O)[C@@H]1O)([C]#[N+]CCCCCC(=O)N[C@H]1C(O)O[C@H](CO)[C@@H](O)[C@@H]1O)([C]#[N+]CCCCCC(=O)N[C@H]1C(O)O[C@H](CO)[C@@H](O)[C@@H]1O)([C]#[N+]CCCCCC(=O)N[C@H]1C(O)O[C@H](CO)[C@@H](O)[C@@H]1O)[C]#[N+]CCCCCC(=O)N[C@H]1C(O)O[C@H](CO)[C@@H](O)[C@@H]1O)N[C@H]1C(O)O[C@H](CO)[C@@H](O)[C@@H]1O (stereo partly shown) | SPECT | BALB/c nude mouse PANC-1 xenograft |  | relative to: kidney over tumour | kidney/tumour ratio | 1.64
Cc1ccc(/N=N/c2c(O)ccc3ccccc23)c(C)c1 |  | extracted rat blood QC samples | 0.5 µg/L, 12 h, room temperature, short-term stability |  | measured concentration | 0.503 µg/L
CCCC[C@H](NC(=O)CNC(=O)CNC(=O)CN1CCN(CC(=O)O)CCN(CC(=O)O)CC1)C(=O)N[C@H]1CC(=O)NCCCC[C@@H](C(N)=O)NC(=O)[C@H](Cc2c[nH]c3ccccc23)NC(=O)[C@H](CCCNC(=N)N)NC(=O)[C@@H](Cc2ccccc2)NC(=O)[C@H](Cc2c[nH]cn2)NC1=O [gallium-67 labelled] |  | female C57 mice, B16/F1 melanoma | intravenous, 0.037 MBq, 4 h | relative to: tumour over lung | tumour to tissue ratio | 60.2
Oc1ccc2ccccc2c1/N=N/c1ccc(/N=N/c2ccccc2)cc1 |  | rat whole blood QC samples | 5.0 µg/L, 8 h, room temperature, short-term stability |  | measured concentration | 5.33 µg/L
CCC1CC2C(C)=CC3C(=O)CCCC3C=CC(C)=CC2C(=O)O1 (stereo not shown) |  | ICR mouse male, plasma | intravenous, 2 mg/kg, 60 min |  | plasma concentration | 5.2 ± 2.8 ng/mL
NS(=O)(=O)c1ccc(N2N=C(C(F)(F)F)CC2c2ccc(F)cc2F)cc1 (stereo not shown) |  | male Wistar rat, liver microsomes | 20 µM, pH 7.4 |  | depletion rate | 108 pmol/min/mg
OCc1[nH]nc2c1N=C(c1ccccc1Cl)c1cnc(N3CCOCC3)cc1N2 |  | human male, plasma | oral, 10 mg, 0-120 h | relative to: metabolite AUC over parent AUC | metabolite to parent ratio | 5.38%
CC1=CC(C)=[N+]2C1=Cc1ccc(CCC(=O)N3CCN(C(=O)c4cc(Cc5n[nH]c(=O)c6ccccc56)ccc4F)CC3)n1[B-]2(F)F |  | athymic nude NU/J mouse, whole blood | intravenous, 2.5 mg/kg |  | alpha half-life | 1.2 min
N#Cc1cnc2cc(OCC3CCNCC3)c(F)cc2c1Nc1cc(F)c(OCc2cccc(Cl)n2)cc1Cl |  | male beagle dog, plasma | oral, 5 mg/kg |  | bioavailability | 37%
[11CH3]c1ccc2nc(C3CCC3)n(-c3ccc4[nH]ncc4c3)c2n1 | extrapolated from mouse | human male, Lower large intestine wall |  |  | absorbed dose | 5 µSv/MBq
CC(C)(C)C(=O)O |  |  |  |  | pKa | 4.79
CC(C)(C)NCC(SS(=O)(=O)O)c1ccccc1 (stereo not shown) | glucuronidation | CD1 mouse, female, liver microsomes | 4 µM, pH 7.4, added: UDPGA |  | metabolic rate constant | 0.07 h⁻¹
CCCC[C@@H]1NC(=O)[C@@H](NC(=O)[C@H](CCC(=O)O)NC(=O)CNC(=O)CN2CCN(CC(=O)O)CCN(CC(=O)O)CCN(CC(=O)O)CC2)CCCCNC(=O)C[C@@H](C(N)=O)NC(=O)[C@H](C(C)C)NC(=O)[C@@H]2CCCN2C(=O)[C@H](CCCNC(=N)N)NC(=O)CNC(=O)[C@H](Cc2c[nH]c3ccccc23)NC(=O)[C@H](CCCNC(=N)N)NC(=O)[C@@H](Cc2ccccc2)NC(=O)[C@H](Cc2c[nH]cn2)NC(=O)[C@H](CCC(=O)O)NC1=O [gallium-67 labelled] |  | B16/F1 melanoma-bearing C57 mice, urine | intravenous, dose not given, 2 h, added: blocking peptide 10 µg |  | urinary excretion | 92 ± 1.5%
COc1cc(NC(C)=O)c2c(c1O)-c1c(OC)c(OC)cc3c1C(C2)N(C)CC3 (stereo not shown) |  | rat heart homogenate | 100 µg/mL, 4 h, room temperature, short-term storage |  | remaining compound | 93.7 ± 2.8%
C[C@H](Oc1cc(-c2cnn(C3CCN(CC[18F])CC3)c2)cnc1N)c1c(Cl)ccc(F)c1Cl | PET imaging | nude mouse, brain | iv, 5 min post injection |  | tracer uptake | 6.6 ± 2.6 %ID/cc
O=C([O-])CN1CCN(CC(=O)[O-])CCN(CC(=O)NC[C@H]2CC[C@H](C(=O)N[C@H](Cc3cnc4ccccc4c3)C(=O)NCCCC[C@H](NC(=O)N[C@@H](CCC(=O)O)C(=O)O)C(=O)O)CC2)CCN(CC(=O)[O-])CC1.[64Cu+2] | PET/CT dosimetry OLINDA/EXM | healthy volunteers, thymus | up to 24 h post-injection |  | absorbed dose | 0.0111 mGy/MBq
O=C(NCCCN(CCCCN(CCCNC(=O)c1cccc(=O)n1[O-])C(=O)c1cccc(=O)n1[O-])C(=O)c1cccc(=O)n1[O-])c1cccc(=O)n1[O-].[89Zr+4] |  | human serum | 7 days, 37 °C |  | intact complex | 98.8%
CCCC[C@H](NC(=O)[C@H](CCC(=O)O)NC(=O)[C@H](CCCNC(=N)N)NC(=O)[C@H](CCC(N)=O)NC(=O)[C@H](CC(C)C)NC(=O)[C@H](CC(C)C)NC(=O)[C@H](CS)NC(=O)[C@H](CCC(N)=O)NC(=O)[C@H](C)NC(=O)[C@H](CCCNC(=N)N)NC(=O)CNC(=O)[C@H](CCCCN)NC(=O)[C@H](CCC(=O)O)NC(=O)[C@H](CC(=O)O)NC(=O)[C@H](CC(C)C)NC(=O)[C@H](CC(C)C)NC(=O)[C@]1(C)CCCC=CCCCCCC[C@@](C)(NC(=O)[C@H](Cc2ccccc2)NC(C)=O)C(=O)N[C@@H](CCCCN)C(=O)N[C@@H](Cc2c[nH]cn2)C(=O)N[C@@H](CS)C(=O)N[C@@H](CCC(N)=O)C(=O)N[C@@H](C)C(=O)N[C@@H](CC(=O)O)C(=O)N1)C(=O)N[C@H](C(=O)N[C@@H](CCC(N)=O)C(=O)N[C@@H](CO)C(=O)N[C@@H](CC(C)C)C(=O)N[C@@H](CCC(=O)O)C(=O)N[C@@H](CCC(N)=O)C(=O)N[C@@H](CCC(N)=O)C(=O)N[C@@H](CC(C)C)C(=O)N[C@H](C(=O)N[C@@H](CC(C)C)C(=O)N[C@@H](CCC(=O)O)C(=O)N[C@@H](CCCCN)C(=O)N[C@@H](CCC(=O)O)C(=O)N[C@@H](CCCCN)C(=O)N[C@@H](CC(C)C)C(N)=O)C(C)C)C(C)C | circular dichroism | sodium acetate buffer | 2.5 to 10 µM, pH 3.6, 20 °C |  | alpha-helicity | 37%
CC/C=C\C/C=C\C/C=C\C/C=C\C/C=C\CCCCOC(CC)C(=O)O (stereo not shown) | [14C] label | male Wistar rat, whole blood | oral, 100 mg/kg, 2 h |  | radioactivity concentration | 36.2 µg equiv/g
Cc1ccc(-c2ccc(-c3cc4sccc4o3)cn2)nc1 | TCSPC | DMF |  |  | radiative decay rate constant | 0.5 ns⁻¹

Structure (SMILES) | test | test system | conditions | how to read | endpoint | result
CCCCN1C(=O)c2cccc3c(NCCCCCCN4CCOCC4)ccc(c23)C1=O |  | aqueous medium | pH 6 |  | fluorescence brightness | 3900 M⁻¹ cm⁻¹
[123I]c1ccc2nc(-c3ccc(-n4ccnn4)nc3)cn2c1 |  | human, venous plasma | intravenous, 60 min |  | intact parent remaining | ~10%
CC(NC(=O)OC1OC(C(=O)O)C(O)C(O)C1O)c1cc(Cl)ccc1Cn1c(=S)[nH]c(=O)c2[nH]ccc21 (stereo not shown) | equilibrium dialysis | human plasma | 16 h, pH 7.4 |  | recovery | > 84%
O=C(Nc1nccs1)C(c1cc(F)ccc1O)N1Cc2ccccc2C1=O (stereo not shown) |  | mouse plasma, high QC | 1500 ng/mL, 1.5 months, -30 °C |  | recovery | 93.3 ± 3.1%
NC12CNCCNCC(NCc3ccc(CNC(=O)CCCC(=O)NCc4ccc(-c5nncnn5)cc4)cc3)(CNCCNC1)CNCCNC2.[64Cu+2] | OLINDA dosimetry | brain | 48 h pretargeting interval, added: huA33-TCO pretargeting |  | mean absorbed dose | 0.0339 rad/mCi
N=C(N)NCCC[C@@H]1NC(=O)[C@H](Cc2c[nH]c3ccccc23)NC(=O)[C@@H](CC2CCCCC2)NC(=O)[C@@H]2CCCN2C(=O)[C@@H](NC(=O)CCc2ccccc2)CCCNC1=O |  | C57BL/6J mice, brain | intravenous, 1 mg/kg |  | elimination half-life | 35.9 min
COC(=O)/C=C/C(=O)c1ccc(OC)cc1 | LC-MS/MS | rat plasma | 2.5 ng/mL, time not given, 3 freeze-thaw cycles |  | recovery | 92.9 ± 3.87%
C=C(c1ccc(C(=O)O)c(F)c1)c1cc2c(cc1C)C(C)(C)C=CC2(C)C |  | Sprague-Dawley rat, male | oral, 100 mg/kg, 2 h, sesame oil vehicle |  | blood cholesterol | 98 ± 9 mg/dL
Cc1cc(O)cc(O)c1C(=O)c1c2c3c(c(O)cc(C)c3oc1=O)C(=O)c1c(O)cc(O)cc1-2 |  | KM mouse male, plasma | intraperitoneal, 15 mg/kg |  | lag time | 2.83 min
CC(C)(Sc1cc[n+]([O-])cc1-c1ccc(C#N)c2ccccc12)C(=O)OC1OC(C(=O)O)C(O)C(O)C1O (stereo not shown) |  | human, urine | oral, 15 mg, 72 h, normal renal function |  | renal clearance | 298 mL/min
Cc1ccc(OCC(=O)N(Cc2cccs2)c2ccn[nH]2)cc1 |  | male beagle dog, plasma | intravenous, 1.0 mg/kg |  | Tmax | 7.8 min
CN(C)C(=S)N(C)N=Cc1ccccc1SSc1ccccc1C=NN(C)C(=S)N(C)C | optical absorption spectra | PBS | pH 7.40, 0.15% DMSO |  | hydrolytic stability period | ≥ 8 h
COc1ccc(-c2ccn(CC[C@](C)(C(=O)NO)S(C)(=O)=O)c(=O)c2)c(F)c1 |  | CF-1 mouse, female | subcutaneous, 300 mg/kg |  | clearance | 65.3 ± 0.667 mL/min/kg
COc1cc(F)cc(-c2nc3ccc(C(=O)NCCCN(C)C)cc3n2C2CCC2)c1 |  |  |  |  | dynamic solubility | 186 µM
COc1cc(C)c(Cc2ccc(O)cc2)cc1[C@@H]1S[C@H](CO)[C@@H](O)[C@H](O)[C@H]1O |  | Japanese T2DM patients, plasma | 1 mg luseogliflozin, day 7, once daily | relative to: compound over luseogliflozin | AUC(0-τ) ratio | 0.147 ± 0.0229
CCCC[C@H](NC(=O)CNC(=O)CNC(=O)CN1CCN(CC(=O)O)CCN(CC(=O)O)CC1)C(=O)N[C@H]1CC(=O)NCCCC[C@@H](C(N)=O)NC(=O)[C@H](Cc2c[nH]c3ccccc23)NC(=O)[C@H](CCCNC(=N)N)NC(=O)[C@@H](Cc2ccccc2)NC(=O)[C@H](Cc2c[nH]cn2)NC1=O [copper-64 labelled] |  | female C57 mouse, B16/F1 melanoma | intravenous, 0.037 MBq, 24 h | relative to: tumour over heart | uptake ratio | 32.7
COC[C@@H](CC(C)C)NC(=O)c1ccc(C)c(CO)c1 | LC-MS | human liver microsomes | 10 µM of parent drug, 20 min, pH 7.4, added: NADPH | relative to: parent drug at time zero | metabolite peak area | 1.8%
CC(C)[C@H](NC(=O)CNC(=O)[C@H](CCC(N)=O)NC(=O)[C@H](C)N)C(=O)O |  | human | 10 mg/kg single dose, LOQ 0.5 ng/mL |  | time to concentration below LOQ | 45 min
Cn1c(=O)oc2ccc(-c3ccc(CC(C#N)NC(=O)C4CNCCCO4)c(F)c3)cc21 (stereo not shown) |  | rat |  |  | NOAEL | 60 mg/kg
CC(C)[C@H](NC(=O)[C@@H]1CCCN1C(=O)[C@H](CCCNC(=N)N)NC(=O)[C@H](CS)NC(=O)[C@H](Cc1c[nH]c2ccccc12)NC(=O)[C@H](CCCNC(=N)N)NC(=O)[C@@H](Cc1ccccc1)NC(=O)[C@H](Cc1c[nH]cn1)NC(=O)[C@H](CCC(=O)O)NC(=O)[C@H](CS)NC(=O)[C@H](CS)NC(=O)[C@@H]1CC(=O)N[C@@H](CCCNC(=N)N)C(=O)NCC(=O)N[C@@H](CC(=O)O)C(=O)N[C@H](Cc2ccc(O)cc2)C(=O)N1)C(N)=O [technetium-99m labelled] |  | C57 mouse, female, B16/F1 melanoma | intravenous, 0.037 MBq, 24 h | relative to: tumour over kidneys | tumour to tissue ratio | 2.05
C#CCO[C@H]1C[C@H]2[C@@H](C)C[C@H]3OC(=O)C(=C)[C@H]3C[C@]2(C)[C@H]1O | propidium iodide flow cytometry | primary splenocytes, BALB/c mouse | 48 h, 10% fetal calf serum |  | CC50 | 55 ± 5.4 µg/mL (≈ 181 µM)

Repeated from above:
Structure (SMILES) | test | test system | conditions | how to read | endpoint | result
Cn1c(=O)oc2ccc(-c3ccc(CC(C#N)NC(=O)C4CNCCCO4)c(F)c3)cc21 (stereo not shown) |  | rat |  |  | NOAEL | 60 mg/kg
CC(C)[C@H](NC(=O)[C@@H]1CCCN1C(=O)[C@H](CCCNC(=N)N)NC(=O)[C@H](CS)NC(=O)[C@H](Cc1c[nH]c2ccccc12)NC(=O)[C@H](CCCNC(=N)N)NC(=O)[C@@H](Cc1ccccc1)NC(=O)[C@H](Cc1c[nH]cn1)NC(=O)[C@H](CCC(=O)O)NC(=O)[C@H](CS)NC(=O)[C@H](CS)NC(=O)[C@@H]1CC(=O)N[C@@H](CCCNC(=N)N)C(=O)NCC(=O)N[C@@H](CC(=O)O)C(=O)N[C@H](Cc2ccc(O)cc2)C(=O)N1)C(N)=O [technetium-99m labelled] |  | C57 mouse, female, B16/F1 melanoma | intravenous, 0.037 MBq, 24 h | relative to: tumour over kidneys | tumour to tissue ratio | 2.05
